# Assay results of several laboratories.
# Values joined by “and” are separate records of one study, mostly repeats; a detail may differ. Numbers after ± are the reported error.
# HTR2C: 5-hydroxytryptamine receptor 2C (HTR2C, Homo sapiens, UniProt P28335)
# UniProt P28335, sequence (whole entry, looked up): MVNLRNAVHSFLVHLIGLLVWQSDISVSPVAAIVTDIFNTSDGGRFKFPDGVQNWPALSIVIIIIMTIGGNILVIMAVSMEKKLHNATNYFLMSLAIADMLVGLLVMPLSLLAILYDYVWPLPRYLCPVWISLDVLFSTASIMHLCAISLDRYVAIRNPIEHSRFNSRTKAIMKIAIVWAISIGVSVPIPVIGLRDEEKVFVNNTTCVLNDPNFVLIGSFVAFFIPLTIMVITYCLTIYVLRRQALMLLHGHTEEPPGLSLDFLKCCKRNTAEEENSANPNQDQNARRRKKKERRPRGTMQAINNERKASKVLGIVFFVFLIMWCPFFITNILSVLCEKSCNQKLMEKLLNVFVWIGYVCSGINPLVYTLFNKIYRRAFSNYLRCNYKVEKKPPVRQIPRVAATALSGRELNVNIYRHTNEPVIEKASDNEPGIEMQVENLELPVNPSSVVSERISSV
# Ribonuclease H1: Ribonuclease H1 (Homo sapiens, UniProt O60930)
# UniProt O60930, sequence (whole entry, looked up): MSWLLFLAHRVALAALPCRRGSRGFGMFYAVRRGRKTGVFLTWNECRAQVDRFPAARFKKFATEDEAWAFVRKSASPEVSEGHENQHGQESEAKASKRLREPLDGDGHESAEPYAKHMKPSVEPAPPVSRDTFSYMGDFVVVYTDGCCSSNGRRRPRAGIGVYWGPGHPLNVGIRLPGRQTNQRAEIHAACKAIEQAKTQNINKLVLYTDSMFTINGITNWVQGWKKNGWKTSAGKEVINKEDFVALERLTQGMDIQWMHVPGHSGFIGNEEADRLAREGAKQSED
# Vesicular acetylcholine transporter: Vesicular acetylcholine transporter (Rattus norvegicus, UniProt Q62666)
# UniProt Q62666, sequence (whole entry, looked up): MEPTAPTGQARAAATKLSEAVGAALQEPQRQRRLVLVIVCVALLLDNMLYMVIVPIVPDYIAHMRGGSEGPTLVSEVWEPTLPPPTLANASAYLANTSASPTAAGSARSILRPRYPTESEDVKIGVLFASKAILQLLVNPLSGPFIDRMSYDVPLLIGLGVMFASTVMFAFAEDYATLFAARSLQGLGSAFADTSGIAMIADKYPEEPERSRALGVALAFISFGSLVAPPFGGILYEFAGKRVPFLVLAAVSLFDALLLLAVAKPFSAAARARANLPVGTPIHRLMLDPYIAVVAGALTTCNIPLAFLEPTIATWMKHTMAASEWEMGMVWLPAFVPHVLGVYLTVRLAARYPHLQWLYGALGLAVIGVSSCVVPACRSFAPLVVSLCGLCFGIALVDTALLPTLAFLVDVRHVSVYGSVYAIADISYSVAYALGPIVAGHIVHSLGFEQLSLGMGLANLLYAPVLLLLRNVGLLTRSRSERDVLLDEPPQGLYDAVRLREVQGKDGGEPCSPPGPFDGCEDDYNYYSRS
# UniProt Q5BJF2, sequence (whole entry, looked up): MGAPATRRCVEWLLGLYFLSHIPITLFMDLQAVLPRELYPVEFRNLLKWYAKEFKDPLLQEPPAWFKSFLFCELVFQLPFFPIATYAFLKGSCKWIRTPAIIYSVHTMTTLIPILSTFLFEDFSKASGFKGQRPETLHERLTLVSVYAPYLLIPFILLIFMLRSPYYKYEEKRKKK
# UniProt Q9JJ73, sequence (whole entry, looked up): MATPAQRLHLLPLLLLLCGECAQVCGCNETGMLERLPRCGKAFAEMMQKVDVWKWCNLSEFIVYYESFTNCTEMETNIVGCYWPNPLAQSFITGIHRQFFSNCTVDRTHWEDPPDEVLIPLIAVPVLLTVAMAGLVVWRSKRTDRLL
# UniProt P10144, sequence (whole entry, looked up): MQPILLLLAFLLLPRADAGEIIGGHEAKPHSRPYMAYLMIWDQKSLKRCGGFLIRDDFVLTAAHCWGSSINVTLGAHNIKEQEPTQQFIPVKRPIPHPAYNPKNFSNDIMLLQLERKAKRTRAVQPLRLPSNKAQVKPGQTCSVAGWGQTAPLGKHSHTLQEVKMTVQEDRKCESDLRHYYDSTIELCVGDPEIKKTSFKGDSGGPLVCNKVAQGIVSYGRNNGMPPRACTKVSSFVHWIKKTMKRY
# UniProt P08172, sequence (whole entry, looked up): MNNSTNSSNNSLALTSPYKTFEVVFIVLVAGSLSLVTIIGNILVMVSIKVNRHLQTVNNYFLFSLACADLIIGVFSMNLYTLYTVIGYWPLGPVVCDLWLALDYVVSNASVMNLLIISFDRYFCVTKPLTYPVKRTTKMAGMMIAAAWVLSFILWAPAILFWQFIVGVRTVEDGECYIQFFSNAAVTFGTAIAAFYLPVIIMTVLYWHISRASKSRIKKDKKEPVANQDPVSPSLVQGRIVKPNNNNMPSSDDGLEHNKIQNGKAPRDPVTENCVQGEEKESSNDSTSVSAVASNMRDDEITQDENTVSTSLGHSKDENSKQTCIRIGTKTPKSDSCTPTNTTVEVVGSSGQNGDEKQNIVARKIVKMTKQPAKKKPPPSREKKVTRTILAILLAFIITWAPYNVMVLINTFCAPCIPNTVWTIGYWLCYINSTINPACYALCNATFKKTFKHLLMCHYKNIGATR
# UniProt P32214, sequence (whole entry, looked up): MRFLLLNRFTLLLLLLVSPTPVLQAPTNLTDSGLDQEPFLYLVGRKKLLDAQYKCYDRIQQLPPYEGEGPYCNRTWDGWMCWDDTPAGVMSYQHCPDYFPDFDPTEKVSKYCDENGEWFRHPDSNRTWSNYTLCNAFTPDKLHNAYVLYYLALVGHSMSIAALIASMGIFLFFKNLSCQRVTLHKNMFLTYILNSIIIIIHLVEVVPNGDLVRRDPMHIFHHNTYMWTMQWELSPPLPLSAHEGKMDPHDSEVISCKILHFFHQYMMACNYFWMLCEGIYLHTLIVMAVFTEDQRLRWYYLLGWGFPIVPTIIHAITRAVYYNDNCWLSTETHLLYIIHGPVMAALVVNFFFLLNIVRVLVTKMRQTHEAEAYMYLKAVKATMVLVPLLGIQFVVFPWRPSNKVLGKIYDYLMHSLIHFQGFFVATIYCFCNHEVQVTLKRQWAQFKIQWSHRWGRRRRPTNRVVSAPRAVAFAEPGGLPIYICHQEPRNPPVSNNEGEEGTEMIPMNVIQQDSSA
SMILES,target,assay,test system,conditions,Ki
Cn1ccc2c(N3CCN(CCCCOc4ccc5c(c4)NC(=O)CC5)CC3)cccc21,"Muscarinic acetylcholine receptor M2 (CHRM2, Homo sapiens, UniProt P08172)","ligand displacement, radioligand",,,195 nM
CNc1nc(SCc2ccccc2)nc2c1ncn2[C@H]1[C@H](O)[C@H](O)[C@]2(CO)C[C@H]12,HTR2C,"ligand displacement, radioligand",,,60 nM
CC(=O)c1cc(O)c(=O)c(O)cc1C,Ribonuclease H1,"enzyme activity, inhibitor, FRET heteroduplex cleavage",,"catalytic domain, free enzyme, added: 18-mer RNA/DNA substrate",64600 nM
CC[C@H](C)[C@H](NC(=O)Cc1cccc(CNC(=O)C[C@H](NC(=O)C[C@H](NC(=O)CN2CCN(CC(=O)O)CCN(CC(=O)O)CCN(CC(=O)O)CC2)C(=O)O)C(=O)O)c1)C(=O)N[C@H]1CCc2cccc3c2N(C1=O)[C@H](C(=O)NCc1cn[nH]n1)C3,"Granzyme B (GZMB, Homo sapiens, UniProt P10144)","enzyme activity, inhibitor, fluorescence",,,30.7 nM
CCc1c(Cl)cccc1N1CCN(C[C@H](F)CCNC(=O)c2cc3ccccc3[nH]2)CC1,HTR2C,"ligand displacement, radioligand",,cell membranes,1830 nM
OC1Cc2ccccc2CC1N1CCC(c2ccc(Br)cc2)CC1 (racemic),Vesicular acetylcholine transporter,radioligand binding,PC12 expressing VAChT,added: [3H]vesamicol,4.7 ± 0.3 nM
C[C@]12COc3ccc(OCc4ccc(C(F)(F)F)cc4)cc3[C@H]1CCN2,"Sigma intracellular receptor 2 (TMEM97, Homo sapiens, UniProt Q5BJF2)","cell-free assay, radioligand",,,11 nM
Nc1ncnc2c1c(-c1ccc(Oc3ccccc3)cc1)nn2C1CCCC1,"Proto-oncogene tyrosine-protein kinase Src (SRC, Gallus gallus, UniProt P00523, K249E/P250E/Y527F)","enzyme activity, inhibitor",,,110 nM
O[C@@H]1Cc2cccc(OCCF)c2C[C@H]1N1CCC(c2ccccc2)CC1,Vesicular acetylcholine transporter,radioligand binding,PC12 expressing VAChT,added: [3H]vesamicol,5.9 ± 0.4 nM
Cc1cc(O)c(=O)c(O)cc1C(=O)N1CCN(C(=O)c2cccc3ccccc23)CC1,Ribonuclease H1,"enzyme activity, inhibitor, FRET heteroduplex cleavage",,"catalytic domain, free enzyme, added: 18-mer RNA/DNA substrate",3000 nM and 5300 nM
CC(=O)N[C@@H](CC(C)C)C(=O)N[C@@H](CC(C)C)C(=O)N[C@@H](CC(C)C)C(=O)N[C@@H](CC(C)C)C(=O)N[C@@H](CCCNC(=N)N)C(=O)N[C@H](C(=O)N[C@@H](CCCCN)C(=O)N[C@@H](CCCNC(=N)N)C(N)=O)C(C)C,proprotein convertase 1/3 (human),inhibitor,,,114 ± 7 nM
Cc1ccc(C2CCN(C3CCCCC3O)CC2)cc1 (racemic),Vesicular acetylcholine transporter,radioligand binding,PC12 expressing VAChT,added: [3H]vesamicol,520 ± 60 nM
CC(=O)N[C@@H](CC(C)C)C(=O)N[C@@H](CC(C)C)C(=O)N[C@@H](CC(C)C)C(=O)N[C@@H](CC(C)C)C(=O)N[C@@H](CC(C)C)C(=O)N[C@@H](CC(C)C)C(=O)N[C@@H](CCCNC(=N)N)C(=O)N[C@H](C(=O)N[C@@H](CCCCN)C(=O)N[C@@H](CCCNC(=N)N)C(N)=O)C(C)C,proprotein convertase 1/3 (human),inhibitor,,,1700 ± 600 nM
CC(C)C[C@H](NC(=O)[C@H](CCCN)NC(=O)CNC(=O)[C@@H](NC(=O)[C@H](C)NC(=O)[C@@H]1CSCSC[C@H](NC(=O)CC[C@H](N)C(=O)O)C(=O)N[C@@H](CC(N)=O)C(=O)N[C@@H]([C@@H](C)O)C(=O)N[C@@H](C)C(=O)N[C@@H]([C@@H](C)O)C(=O)N1)[C@@H](C)O)C(=O)N[C@@H](C)C(=O)N[C@@H](CCC(=O)O)C(=O)N[C@@](C)(Cc1ccccc1)C(=O)N[C@@H](CC(C)C)C(=O)N[C@H](C(=O)N[C@@H](CCCNC(=N)N)C(=O)N[C@@H](CO)C(=O)N[C@@H](CO)C(=O)N[C@@H](CC(N)=O)C(=O)N(C)[C@@H](CC(N)=O)C(=O)N[C@@H](Cc1ccccc1)C(=O)NCC(=O)N1CCC[C@H]1C(=O)N[C@@H](CCCCNC(=O)CC[C@H](NC(=O)CC[C@H](NC(=O)CCCCCCCCCCCCCCCCCCC(=O)O)C(=O)O)C(=O)O)C(=O)N[C@@H](CC(C)C)C(=O)N1CCC[C@H]1C(=O)N1CCC[C@H]1C(=O)N[C@H](C(=O)N[C@@H](CCC(=O)O)C(=O)N[C@H](C(=O)NCC(=O)N[C@@H](CO)C(=O)N[C@@H](CC(N)=O)C(=O)N[C@H](C(=O)N[C@@H](Cc1ccc(O)cc1)C(N)=O)[C@@H](C)O)C(C)C)[C@@H](C)O)C(C)C,"Amylin receptor AMY3; CALCR/RAMP3 (Rattus norvegicus, UniProt P32214+Q9JJ73)","ligand displacement, radioligand",,cell membranes,0.161 nM

# Excerpt of the above:
SMILES,target,assay,test system,conditions,Ki
CCc1c(Cl)cccc1N1CCN(C[C@H](F)CCNC(=O)c2cc3ccccc3[nH]2)CC1,HTR2C,"ligand displacement, radioligand",,cell membranes,1830 nM
